Measurements from different studies.
A part holds a random share of what one study measured. “And” joins repeats or separate records; there may be more than shown. Positions count from the first letter of the parent shown.

Sample 1
Target: D(4) dopamine receptor (DRD4, Homo sapiens, UniProt P21917)
Chain of UniProt P21917 (whole entry, looked up): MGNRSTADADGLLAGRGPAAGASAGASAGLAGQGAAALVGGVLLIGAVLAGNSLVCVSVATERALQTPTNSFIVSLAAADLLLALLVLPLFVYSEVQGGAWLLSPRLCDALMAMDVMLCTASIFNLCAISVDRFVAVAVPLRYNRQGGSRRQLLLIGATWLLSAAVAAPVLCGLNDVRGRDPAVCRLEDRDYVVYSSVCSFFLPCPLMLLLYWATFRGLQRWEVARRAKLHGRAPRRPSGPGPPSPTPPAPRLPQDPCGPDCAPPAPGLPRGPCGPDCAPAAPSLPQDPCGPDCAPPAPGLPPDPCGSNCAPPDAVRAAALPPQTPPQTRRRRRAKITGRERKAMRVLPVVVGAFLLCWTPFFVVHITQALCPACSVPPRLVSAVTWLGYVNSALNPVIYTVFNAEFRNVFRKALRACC
Read-out: ligand displacement
Concentration: 10 µM
Compound	inhibition
CC[C@H](CC(=O)O)n1c(=O)c2ncccc2n(Cc2cn(C)c3cc(C)cc(C)c23)c1=O	-1.4%
CS(=O)(=O)N1CCCC(NC(=O)[C@H](CCC2CCCCC2)NC(=O)c2ccc(CNC(=O)c3cnc4ccccn34)cc2)C1 (some centres unmarked)	3.78%
CN1CCN(c2cnc3c(C4CCN(C(=O)c5ccc(OC(F)(F)F)cc5N)CC4)ncnc3c2)CC1	12.7%
Nc1nc(NCc2ccccc2)nc(-c2cccc(CO)c2)n1	24.4%
COc1cccc(NC(=O)c2nc3scc(CN(C)Cc4ccccc4)c3c(=O)[nH]2)c1	14.4%
COCCOc1nc(-c2ccc(Cl)nc2)nc2c1CN(C(=O)c1ncn3ccccc13)CC2	15.7%
O=C1NC(c2ccccn2)Sc2ccccc21 (centres unmarked)	7.31%
CN1CCN(c2ccnc(NCCc3ccccc3)n2)CC1	13%
O=C(N[C@H]1CCCCC/C=C\C2C[C@@]2(C(=O)O)NC(=O)[C@@H]2C[C@@H](Oc3ccncc3)CN2C1=O)OC1CCCC1 (some centres unmarked)	9.26%
C[C@@H]1CN(c2cc(-c3n[nH]c4ccc(OC5(C)CC5)cc34)ncn2)C[C@H](C)O1	-4.87%
COc1cc(N[C@@H]2CCCC[C@]2(O)C(F)(F)F)ccc1F	6.32%
Nc1nc(NCc2ccccc2)nc(-c2ccccc2CO)n1	4.35%
Cn1cc(Cl)c2c(Oc3c(F)cc(Nc4cc(Cl)nc(N)n4)cc3F)ccnc21	11.3%
CO[C@H]1CC[C@H](CNc2ccc(S(=O)(=O)NC(=O)c3ccc(N4CCN(CC5=C(c6ccc(Cl)cc6)CC(C)(C)CC5)CC4)cc3Oc3cnc4[nH]ccc4c3)cc2[N+](=O)[O-])CC1	-4.72%
O=S(=O)(NC1CCC(c2cc(F)ccc2F)(S(=O)(=O)c2ccc(Cl)cc2)CC1)C(F)(F)F (centres unmarked)	20.1%
Cc1cc(Nc2nccc(C)n2)cc(-c2cnc([C@@]3(O)CC[C@H](C(=O)O)C(C)(C)C3)s2)c1	-6.05%
CC1CCN(c2ccnc(NCc3cn(C)cn3)n2)CC1	3.89%

Sample 2
Target: ABI1, truncated, D143A, DHFR fusion (Arabidopsis thaliana)
Technique: DHFR PCA, deep sequencing
Medium: yeast
Notes: methotrexate growth selection, single substitutions
With: (+)-ABA 17 µM
Reference: wild-type fitted maximum
Reading: higher = stronger binding
Starting sequence: PYL1, truncated, DHFR fusion (Arabidopsis thaliana); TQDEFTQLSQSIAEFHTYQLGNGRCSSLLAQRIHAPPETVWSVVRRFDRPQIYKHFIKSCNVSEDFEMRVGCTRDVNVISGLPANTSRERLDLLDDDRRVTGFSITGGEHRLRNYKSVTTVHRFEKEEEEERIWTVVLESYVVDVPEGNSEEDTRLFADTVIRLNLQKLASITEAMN
Substitution	relative binding score
R88C	82.2%
K116S	91.2%
L164Q	88.7%
T6M	84.6%
V44K	-11.2%
A170Q	79.4%
L112I	8.97%
K126G	95.2%

Sample 3
Cell line: mouse MPNST tumor cells
Technique: high-content immunofluorescence imaging
Measured: nuclear SOX9
Concentration: 10 µM
Time: 12 h
Notes: mean of 2 replicates
Reference: DMSO control
Reading: higher = more nuclear SOX9
Structure (SMILES)	nuclear SOX9 intensity
CC(=C(CCO)SSCC1CCCO1)N(C=O)Cc1cnc(C)nc1N (stereo in doubt)	103 % of DMSO
Cc1onc(-c2ccccc2Cl)c1C(=O)N[C@@H]1C(=O)N2[C@@H]1SC(C)(C)[C@@H]2C(=O)O	91.2 % of DMSO
CCS(=O)(=O)CCn1c([N+](=O)[O-])cnc1C	98.7 % of DMSO and 94.7 % of DMSO
C#CCN(C)Cc1ccccc1	94.2 % of DMSO and 114 % of DMSO

Sample 4
Organism: Sarcocystis neurona
Read-out: parasite growth
Concentration: concentration not given
Notes: second screen
Reference: untreated
SMILES	log2 fold change
COc1cc(OC)c(C(=O)CCCN2CCCC2)c(OC)c1.Cl	0.51
COc1ccc(C(=O)NCc2ccc(OCCN(C)C)cc2)cc1OC.Cl	0.28
NC(=O)OCC(COC(N)=O)c1ccccc1.O	0.33

Sample 5
Target: Beta-1 adrenergic receptor (ADRB1, Homo sapiens, UniProt P08588)
Chain of UniProt P08588 (whole entry, looked up): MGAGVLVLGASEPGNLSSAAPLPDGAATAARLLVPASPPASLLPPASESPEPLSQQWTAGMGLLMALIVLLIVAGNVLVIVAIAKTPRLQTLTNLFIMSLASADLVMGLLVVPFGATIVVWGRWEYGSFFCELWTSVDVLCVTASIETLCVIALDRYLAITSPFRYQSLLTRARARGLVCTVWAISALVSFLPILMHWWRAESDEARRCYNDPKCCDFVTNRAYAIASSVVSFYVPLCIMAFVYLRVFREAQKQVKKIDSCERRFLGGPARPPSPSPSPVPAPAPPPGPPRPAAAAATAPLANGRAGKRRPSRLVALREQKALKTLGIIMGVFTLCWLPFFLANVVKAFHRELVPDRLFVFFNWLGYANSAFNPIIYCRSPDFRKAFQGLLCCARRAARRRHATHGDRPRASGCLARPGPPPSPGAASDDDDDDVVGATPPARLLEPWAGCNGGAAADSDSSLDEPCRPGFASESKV
Action: antagonist
Compound	IC50
Cc1noc2c(-c3cccc(CO)c3)cc(-c3cccc(C(F)(F)F)c3)nc12	≥ 100 µM
Cc1noc2c(NC(C)C)cc(-c3ccccc3)nc12	≥ 100 µM
O=C(c1cc(N2CCN(c3ccccc3)CC2)nc2ccccc12)N1CCOCC1	≥ 100 µM
CN(C)c1cccc(-c2ncc3c(n2)OCCN(Cc2ccccc2)C3=O)c1	≥ 100 µM

Sample 6
Species: mouse
Medium: microsomes or S9
Concentration: 2 µM
Time: 0.5 h
SMILES	remaining compound [%]
CCCN(CCC)CC(c1ccc(-c2cccnc2)cc1)N(C)C(=O)CN1C(=O)COc2cc(Cl)c(Cl)cc21 (centres unmarked)	10
O=C(Cn1c2ccccc2c2ncn(Cc3nc(C4CC4)no3)c(=O)c21)NC1CCCCC1	6.65
COc1cc(CC2CC(c3cc(OC)c4c(c3)OCO4)=NO2)cc2c1OCO2 (centres unmarked)	1.2

Single results of other studies
SMILES	test system	setting	scale	quantity	result
CCCN1C(=O)[C@H](CC(C)C)NC(=O)[C@@H](N(C)C(=O)[C@H](CC2CCC2)NC(=O)[C@@H]2C[C@@H](F)CN2C(=O)[C@@](C)(O)C(F)(F)F)CCCCNC(=O)C2(CC2)NC(=O)[C@@H]1Cc1cc(Cl)ccc1Cl	mouse NCI-H1048 xenograft	iv, 100 mg/kg once daily, day 14	–	tumour volume	418 mm3 and 551 mm3 and 427 mm3 and 539 mm3 and 654 mm3 and 639 mm3 and 449 mm3 and 448 mm3
COc1ccc(-c2c(Nc3ccccn3)[nH]c3c(C4=CCCCC4)c(-c4ccccc4)nn3c2=O)cc1	human, plasma	oral, 50 mg once daily, cycle 1	reference: trough concentration	swing over dosing interval	0.504 and 0.496 and 0.495

A few entries again (sample 3):
Structure (SMILES)	nuclear SOX9 intensity
CC(=C(CCO)SSCC1CCCO1)N(C=O)Cc1cnc(C)nc1N (stereo in doubt)	103 % of DMSO
Cc1onc(-c2ccccc2Cl)c1C(=O)N[C@@H]1C(=O)N2[C@@H]1SC(C)(C)[C@@H]2C(=O)O	91.2 % of DMSO
CCS(=O)(=O)CCn1c([N+](=O)[O-])cnc1C	98.7 % of DMSO and 94.7 % of DMSO
C#CCN(C)Cc1ccccc1	94.2 % of DMSO and 114 % of DMSO
